Results of several laboratories.
Numbered parts are unrelated; each lists some results of a single study. Positions count from the first letter of the parent shown.
UniProt Q05397, sequence (whole entry, looked up): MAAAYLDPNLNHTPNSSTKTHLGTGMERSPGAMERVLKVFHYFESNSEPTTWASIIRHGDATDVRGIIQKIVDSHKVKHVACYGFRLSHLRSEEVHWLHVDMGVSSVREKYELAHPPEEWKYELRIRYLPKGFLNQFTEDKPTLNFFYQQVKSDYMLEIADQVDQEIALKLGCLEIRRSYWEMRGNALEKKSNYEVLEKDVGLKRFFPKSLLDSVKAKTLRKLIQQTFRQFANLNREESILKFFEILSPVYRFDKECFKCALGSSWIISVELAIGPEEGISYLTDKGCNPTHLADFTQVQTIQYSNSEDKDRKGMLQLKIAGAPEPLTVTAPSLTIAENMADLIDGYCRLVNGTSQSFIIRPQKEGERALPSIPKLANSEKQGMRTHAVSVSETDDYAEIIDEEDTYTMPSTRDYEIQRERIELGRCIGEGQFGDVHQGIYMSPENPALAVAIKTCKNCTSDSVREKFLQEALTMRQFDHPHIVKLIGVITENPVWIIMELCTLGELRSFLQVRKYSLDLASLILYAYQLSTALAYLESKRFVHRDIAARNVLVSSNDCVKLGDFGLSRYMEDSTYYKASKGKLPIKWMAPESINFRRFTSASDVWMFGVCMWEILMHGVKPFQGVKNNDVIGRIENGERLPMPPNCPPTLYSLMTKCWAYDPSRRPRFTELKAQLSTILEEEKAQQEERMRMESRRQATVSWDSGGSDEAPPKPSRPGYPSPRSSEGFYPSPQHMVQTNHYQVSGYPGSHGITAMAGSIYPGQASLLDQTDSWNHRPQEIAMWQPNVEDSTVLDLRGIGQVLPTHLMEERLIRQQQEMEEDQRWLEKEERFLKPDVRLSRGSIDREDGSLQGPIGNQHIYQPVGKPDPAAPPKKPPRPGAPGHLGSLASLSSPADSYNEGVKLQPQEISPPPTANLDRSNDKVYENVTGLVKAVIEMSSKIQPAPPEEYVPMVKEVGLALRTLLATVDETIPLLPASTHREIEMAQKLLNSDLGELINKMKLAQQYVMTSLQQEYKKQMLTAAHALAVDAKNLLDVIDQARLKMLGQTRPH
UniProt Q15349, sequence (whole entry, looked up): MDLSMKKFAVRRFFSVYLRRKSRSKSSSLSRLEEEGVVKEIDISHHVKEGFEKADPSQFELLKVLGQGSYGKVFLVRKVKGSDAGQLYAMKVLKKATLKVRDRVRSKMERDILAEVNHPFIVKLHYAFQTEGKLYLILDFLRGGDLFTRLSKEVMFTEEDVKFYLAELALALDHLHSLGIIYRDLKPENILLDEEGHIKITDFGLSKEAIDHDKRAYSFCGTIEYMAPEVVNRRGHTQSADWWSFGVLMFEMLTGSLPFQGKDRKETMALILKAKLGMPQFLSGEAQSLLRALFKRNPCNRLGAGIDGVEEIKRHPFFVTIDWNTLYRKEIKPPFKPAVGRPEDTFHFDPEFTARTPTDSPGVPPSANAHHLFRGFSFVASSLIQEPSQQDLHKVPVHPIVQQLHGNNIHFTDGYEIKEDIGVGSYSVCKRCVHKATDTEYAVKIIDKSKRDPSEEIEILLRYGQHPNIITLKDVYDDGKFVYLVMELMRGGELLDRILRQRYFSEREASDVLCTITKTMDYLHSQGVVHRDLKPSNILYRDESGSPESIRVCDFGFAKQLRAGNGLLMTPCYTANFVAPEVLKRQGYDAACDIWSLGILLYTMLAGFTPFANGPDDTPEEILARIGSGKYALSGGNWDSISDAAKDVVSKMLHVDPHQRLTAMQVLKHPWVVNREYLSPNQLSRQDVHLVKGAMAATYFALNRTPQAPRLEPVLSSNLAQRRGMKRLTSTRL
UniProt O00141, sequence (whole entry, looked up): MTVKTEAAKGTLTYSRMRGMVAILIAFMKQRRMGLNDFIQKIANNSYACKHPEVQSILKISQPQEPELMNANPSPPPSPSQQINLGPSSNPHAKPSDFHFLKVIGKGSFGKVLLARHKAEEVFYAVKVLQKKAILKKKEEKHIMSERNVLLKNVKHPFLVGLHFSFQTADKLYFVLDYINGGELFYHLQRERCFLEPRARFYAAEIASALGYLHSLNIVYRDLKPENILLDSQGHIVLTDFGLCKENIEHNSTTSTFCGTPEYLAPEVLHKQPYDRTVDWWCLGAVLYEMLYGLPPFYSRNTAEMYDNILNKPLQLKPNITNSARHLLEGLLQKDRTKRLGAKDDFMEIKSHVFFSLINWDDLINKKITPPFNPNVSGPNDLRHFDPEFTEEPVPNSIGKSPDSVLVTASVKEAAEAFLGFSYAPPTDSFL
UniProt Q04912, sequence (whole entry, looked up): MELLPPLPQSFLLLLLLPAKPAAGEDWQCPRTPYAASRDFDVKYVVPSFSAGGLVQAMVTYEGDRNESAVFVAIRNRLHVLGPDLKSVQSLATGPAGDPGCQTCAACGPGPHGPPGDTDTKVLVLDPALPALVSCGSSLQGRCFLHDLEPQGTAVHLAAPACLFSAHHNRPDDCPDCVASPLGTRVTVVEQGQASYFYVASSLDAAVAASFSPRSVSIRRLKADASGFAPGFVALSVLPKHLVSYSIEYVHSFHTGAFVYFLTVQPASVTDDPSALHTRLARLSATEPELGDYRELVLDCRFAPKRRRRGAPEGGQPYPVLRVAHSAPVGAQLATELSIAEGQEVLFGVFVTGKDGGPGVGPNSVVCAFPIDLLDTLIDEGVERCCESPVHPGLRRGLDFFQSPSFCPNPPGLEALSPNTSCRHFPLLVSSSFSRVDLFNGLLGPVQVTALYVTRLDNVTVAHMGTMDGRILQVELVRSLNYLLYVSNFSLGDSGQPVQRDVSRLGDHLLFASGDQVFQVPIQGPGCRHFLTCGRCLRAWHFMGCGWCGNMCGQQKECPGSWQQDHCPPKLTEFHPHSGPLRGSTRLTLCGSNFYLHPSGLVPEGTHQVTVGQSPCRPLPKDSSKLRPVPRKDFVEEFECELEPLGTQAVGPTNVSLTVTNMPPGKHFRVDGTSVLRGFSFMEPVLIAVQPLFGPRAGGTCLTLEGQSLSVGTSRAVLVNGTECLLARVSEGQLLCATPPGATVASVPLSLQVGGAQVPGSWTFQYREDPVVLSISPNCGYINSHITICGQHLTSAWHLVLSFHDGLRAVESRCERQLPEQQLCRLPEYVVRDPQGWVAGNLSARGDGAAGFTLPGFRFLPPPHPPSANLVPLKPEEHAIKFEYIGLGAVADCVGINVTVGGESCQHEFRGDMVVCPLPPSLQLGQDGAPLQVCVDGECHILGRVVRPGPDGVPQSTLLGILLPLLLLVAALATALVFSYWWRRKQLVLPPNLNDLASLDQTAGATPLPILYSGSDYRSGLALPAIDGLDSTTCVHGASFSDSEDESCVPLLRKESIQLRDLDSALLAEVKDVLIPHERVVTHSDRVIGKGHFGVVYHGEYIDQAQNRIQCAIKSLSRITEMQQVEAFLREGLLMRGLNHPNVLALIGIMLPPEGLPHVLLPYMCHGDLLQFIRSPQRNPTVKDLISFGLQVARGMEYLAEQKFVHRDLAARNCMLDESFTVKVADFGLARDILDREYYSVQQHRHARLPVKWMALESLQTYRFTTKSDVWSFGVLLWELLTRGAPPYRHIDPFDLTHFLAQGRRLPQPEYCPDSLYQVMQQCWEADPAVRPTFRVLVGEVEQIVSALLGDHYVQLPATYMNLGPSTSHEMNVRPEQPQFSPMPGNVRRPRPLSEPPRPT
UniProt Q92918, sequence (whole entry, looked up): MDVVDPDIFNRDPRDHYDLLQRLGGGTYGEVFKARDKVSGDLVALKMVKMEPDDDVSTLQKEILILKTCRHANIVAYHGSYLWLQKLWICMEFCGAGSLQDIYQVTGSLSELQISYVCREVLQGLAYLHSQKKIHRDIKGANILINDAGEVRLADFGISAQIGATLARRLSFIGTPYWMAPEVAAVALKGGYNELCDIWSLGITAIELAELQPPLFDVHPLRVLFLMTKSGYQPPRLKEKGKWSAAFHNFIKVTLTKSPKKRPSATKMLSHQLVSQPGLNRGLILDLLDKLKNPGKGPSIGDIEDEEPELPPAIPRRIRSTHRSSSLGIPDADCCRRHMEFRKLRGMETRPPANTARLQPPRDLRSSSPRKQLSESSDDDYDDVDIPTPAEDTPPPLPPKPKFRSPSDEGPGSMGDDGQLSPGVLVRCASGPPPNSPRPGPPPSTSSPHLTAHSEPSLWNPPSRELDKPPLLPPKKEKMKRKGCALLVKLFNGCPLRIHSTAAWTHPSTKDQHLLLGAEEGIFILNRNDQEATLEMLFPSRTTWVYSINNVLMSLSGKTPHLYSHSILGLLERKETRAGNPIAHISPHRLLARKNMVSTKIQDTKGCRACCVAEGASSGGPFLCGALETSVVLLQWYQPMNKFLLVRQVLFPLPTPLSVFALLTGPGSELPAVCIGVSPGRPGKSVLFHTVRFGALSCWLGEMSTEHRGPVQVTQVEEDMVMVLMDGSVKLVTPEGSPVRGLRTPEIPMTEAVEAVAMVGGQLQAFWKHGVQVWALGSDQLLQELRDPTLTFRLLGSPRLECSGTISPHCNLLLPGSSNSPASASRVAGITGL

Set 1
SMILES: COc1ccc2c(O[C@@H]3C[C@H]4C(=O)N[C@]5(C(=O)O)CC5/C=C\CCCCC[C@H](NC(=O)OC5CCCC5)C(=O)N4C3)cc(-c3csc(NC(=O)C(C)C)n3)nc2c1C (some centres unmarked)
Read-out: cell-free assay
Method: competition with immobilised ligand
Tested at: 1 µM
Mitogen-activated protein kinase kinase kinase kinase 3 (MAP4K3, Homo sapiens, UniProt Q8IVH8) — remaining binding: 100%.
It gave 79% for remaining binding (Phosphatidylinositol 4,5-bisphosphate 3-kinase catalytic subunit alpha isoform (PIK3CA, Homo sapiens, UniProt P42336, H1047L)).
It gave 99% for remaining binding (Focal adhesion kinase 1 (PTK2, Homo sapiens, UniProt Q05397)).
It gave 100% for remaining binding (LIM domain kinase 1 (LIMK1, Homo sapiens, UniProt P53667)).
Serine/threonine-protein kinase 35 (STK35, Homo sapiens, UniProt Q8TDR2) — remaining binding: 100%.
Insulin-like growth factor 1 receptor (IGF1R, Homo sapiens, UniProt P08069) — remaining binding: 98%.
It gave 100% for remaining binding (Membrane-associated tyrosine- and threonine-specific cdc2-inhibitory kinase (PKMYT1, Homo sapiens, UniProt Q99640)).
Mitogen-activated protein kinase kinase kinase kinase 1 (MAP4K1, Homo sapiens, UniProt Q92918) — remaining binding: 100%.
For Serine/threonine-protein kinase B-raf (BRAF, Homo sapiens, UniProt P15056, V600E): remaining binding read 77%.
The remaining binding was 100% (Serine/threonine-protein kinase MRCK alpha (CDC42BPA, Homo sapiens, UniProt Q5VT25)).
The remaining binding was 81% (Serine/threonine-protein kinase Sgk1 (SGK1, Homo sapiens, UniProt O00141)).

Set 2
Target: CCND1, cyclin fold, Cln2 fusion (human)
Method: yeast growth competition, sequencing
Matrix: yeast
Setting: weak parent motif
Relative to: not given
Reading: higher = stronger binding
Starting sequence: ASZ1 docking peptide (human); GFGFLLFICKLTF
`F4A`: “normalised enrichment score” -0.111.
`G3A` — result for “normalised enrichment score”: -0.301.
Under “normalised enrichment score”, `K10A` is recorded as -0.378.
Under “normalised enrichment score”, `L6A` is recorded as 0.0704.
`G1A` — result for “normalised enrichment score”: -0.328.
For `L5A`, “normalised enrichment score” read -0.205.
Under “normalised enrichment score”, `T12A` is recorded as -0.4.

Set 3
SMILES: O=C1Nc2ccc(Br)cc2/C1=C/c1cc2c([nH]1)CCCC2
Read-out: enzyme activity
Mode: inhibitor
Tested at: 0.5 µM
Relative to: control
It gave 72% for remaining activity (Ribosomal protein S6 kinase alpha-2 (RPS6KA2, Homo sapiens, UniProt Q15349)).
Dual specificity mitogen-activated protein kinase kinase 2 (MAP2K2, Homo sapiens, UniProt P36507) — remaining activity: 92.1%.
Macrophage-stimulating protein receptor (MST1R, Homo sapiens, UniProt Q04912) — remaining activity: 88.3%.

Set 4
Target: Centromere-binding protein 1, full length, His-tagged (CBF1, Saccharomyces cerevisiae, UniProt P17106, residues 1-351)
UniProt P17106, sequence (whole entry, looked up): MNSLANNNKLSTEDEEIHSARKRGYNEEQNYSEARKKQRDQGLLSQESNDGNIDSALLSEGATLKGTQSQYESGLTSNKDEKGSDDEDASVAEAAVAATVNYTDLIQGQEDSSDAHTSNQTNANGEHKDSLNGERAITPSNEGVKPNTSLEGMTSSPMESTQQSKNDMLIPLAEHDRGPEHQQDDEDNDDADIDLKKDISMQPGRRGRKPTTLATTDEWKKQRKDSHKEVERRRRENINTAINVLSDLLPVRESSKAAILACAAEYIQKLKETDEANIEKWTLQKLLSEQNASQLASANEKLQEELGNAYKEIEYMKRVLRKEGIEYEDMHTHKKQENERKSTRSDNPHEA
Method: competition protein-binding microarray
Molecule type: double-stranded DNA, one strand shown
Matrix: in vitro
Tested at: 2 µM
Setting: whole 60-bp probe, lowest competitor level
Together with: Pho4 competitor, 0.05 µM
Reading: higher = stronger binding
Constant ends, left off below: … GTCTTGATTCGCTTGACGCTGCTG
`GTCTTGTCTCATTTTCACGTGCCCTTCCCCACTTCA` gave a fluorescence intensity of 1070 a.u.
`ATTGCATTCTTAAAACACGTGCTTTACCAGTGGGAA` has a fluorescence intensity of 2520 a.u.
For `TTTCTCTCTTCAAGTGACCTGACAGGGCCACAGTGG`, the fluorescence intensity was 63.9 a.u.
`TTGGAAGAGAACCGTCACGTAGGGATGATTTAGAAT` gave a fluorescence intensity of 86.1 a.u.
`CACTTTTCTGGGTCTCTCGTGGTAGTCTTCCTTGTT` gave a fluorescence intensity of 83 a.u.
`CAACACCCTCCAGAGACCGTGCCGAAGTTGTTCGAG` has a fluorescence intensity of 59.4 a.u.
`CTTTCCCGATCTTGAACCGTGGGTGTAGCACATTTG` has a fluorescence intensity of 81.8 a.u.
The fluorescence intensity of `GTTCAAGTCTCCTTCCACGGGAATGGTCGGGTAAAT` is reported as 66.7 a.u.

A few entries again (set 3):
It gave 72% for remaining activity (Ribosomal protein S6 kinase alpha-2 (RPS6KA2, Homo sapiens, UniProt Q15349)).
Macrophage-stimulating protein receptor (MST1R, Homo sapiens, UniProt Q04912) — remaining activity: 88.3%.
Dual specificity mitogen-activated protein kinase kinase 2 (MAP2K2, Homo sapiens, UniProt P36507) — remaining activity: 92.1%.
